Assay results pooled from the literature.
A part holds a random share of what one study measured.
UniProt P11362, sequence (whole entry, looked up): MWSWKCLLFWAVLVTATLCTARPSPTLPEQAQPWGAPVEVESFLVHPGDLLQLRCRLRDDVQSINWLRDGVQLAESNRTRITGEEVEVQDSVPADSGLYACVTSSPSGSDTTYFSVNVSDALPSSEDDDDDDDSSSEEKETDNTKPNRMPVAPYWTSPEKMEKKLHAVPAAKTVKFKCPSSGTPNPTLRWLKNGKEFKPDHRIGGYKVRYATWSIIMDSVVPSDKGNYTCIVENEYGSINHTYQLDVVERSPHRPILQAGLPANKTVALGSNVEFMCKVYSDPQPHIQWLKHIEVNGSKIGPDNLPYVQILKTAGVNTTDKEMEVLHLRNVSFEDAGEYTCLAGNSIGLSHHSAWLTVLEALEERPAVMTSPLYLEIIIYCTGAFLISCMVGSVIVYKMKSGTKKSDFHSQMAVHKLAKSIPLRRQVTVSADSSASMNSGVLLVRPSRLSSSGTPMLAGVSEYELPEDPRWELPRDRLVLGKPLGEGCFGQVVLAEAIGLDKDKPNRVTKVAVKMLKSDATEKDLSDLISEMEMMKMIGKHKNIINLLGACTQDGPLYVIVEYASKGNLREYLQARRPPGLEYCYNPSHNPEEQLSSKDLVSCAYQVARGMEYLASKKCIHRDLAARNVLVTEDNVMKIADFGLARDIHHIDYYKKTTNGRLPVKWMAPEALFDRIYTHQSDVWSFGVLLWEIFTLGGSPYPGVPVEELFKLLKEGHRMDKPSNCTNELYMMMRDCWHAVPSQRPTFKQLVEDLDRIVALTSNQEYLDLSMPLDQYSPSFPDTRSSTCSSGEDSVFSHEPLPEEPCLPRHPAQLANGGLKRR
UniProt P36896, sequence (whole entry, looked up): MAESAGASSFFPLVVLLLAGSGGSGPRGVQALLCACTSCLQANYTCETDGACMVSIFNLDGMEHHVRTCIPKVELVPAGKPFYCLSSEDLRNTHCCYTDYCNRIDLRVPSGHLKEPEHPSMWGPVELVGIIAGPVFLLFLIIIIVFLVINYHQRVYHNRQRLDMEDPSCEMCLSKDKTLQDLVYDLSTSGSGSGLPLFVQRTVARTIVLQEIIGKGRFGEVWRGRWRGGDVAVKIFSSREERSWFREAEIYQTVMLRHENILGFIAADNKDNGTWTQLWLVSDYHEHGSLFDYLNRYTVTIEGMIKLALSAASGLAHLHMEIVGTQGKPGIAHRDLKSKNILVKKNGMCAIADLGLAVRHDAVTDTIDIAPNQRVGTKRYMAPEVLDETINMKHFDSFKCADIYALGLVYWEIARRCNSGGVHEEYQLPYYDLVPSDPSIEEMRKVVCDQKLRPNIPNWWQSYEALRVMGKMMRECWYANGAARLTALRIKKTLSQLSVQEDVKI
UniProt Q12866, sequence (whole entry, looked up): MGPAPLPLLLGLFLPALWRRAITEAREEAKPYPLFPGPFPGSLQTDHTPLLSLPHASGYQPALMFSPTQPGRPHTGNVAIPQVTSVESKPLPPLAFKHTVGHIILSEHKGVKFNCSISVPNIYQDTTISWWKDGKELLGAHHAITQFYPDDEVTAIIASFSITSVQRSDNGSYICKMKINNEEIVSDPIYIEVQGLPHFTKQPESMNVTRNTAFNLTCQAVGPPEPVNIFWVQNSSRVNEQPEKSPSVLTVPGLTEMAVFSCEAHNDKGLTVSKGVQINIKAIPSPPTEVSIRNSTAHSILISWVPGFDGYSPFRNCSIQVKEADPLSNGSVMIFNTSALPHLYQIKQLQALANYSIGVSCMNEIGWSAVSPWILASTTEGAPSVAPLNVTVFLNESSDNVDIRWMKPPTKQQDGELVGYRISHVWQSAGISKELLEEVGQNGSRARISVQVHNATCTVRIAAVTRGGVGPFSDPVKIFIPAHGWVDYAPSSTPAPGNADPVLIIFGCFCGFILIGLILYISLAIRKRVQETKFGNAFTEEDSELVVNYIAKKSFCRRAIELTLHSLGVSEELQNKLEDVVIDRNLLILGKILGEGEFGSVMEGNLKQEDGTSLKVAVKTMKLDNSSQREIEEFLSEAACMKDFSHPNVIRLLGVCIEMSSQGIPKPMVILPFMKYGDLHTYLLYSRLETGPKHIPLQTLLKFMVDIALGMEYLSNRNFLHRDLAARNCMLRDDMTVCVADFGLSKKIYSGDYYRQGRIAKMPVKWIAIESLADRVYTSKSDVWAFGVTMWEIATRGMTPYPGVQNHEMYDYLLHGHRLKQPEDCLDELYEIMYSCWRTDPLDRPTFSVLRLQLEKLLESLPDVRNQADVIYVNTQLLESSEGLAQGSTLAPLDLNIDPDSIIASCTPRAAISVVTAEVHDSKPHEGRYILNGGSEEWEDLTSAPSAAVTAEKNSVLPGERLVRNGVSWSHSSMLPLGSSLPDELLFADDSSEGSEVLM
UniProt P49137, sequence (whole entry, looked up): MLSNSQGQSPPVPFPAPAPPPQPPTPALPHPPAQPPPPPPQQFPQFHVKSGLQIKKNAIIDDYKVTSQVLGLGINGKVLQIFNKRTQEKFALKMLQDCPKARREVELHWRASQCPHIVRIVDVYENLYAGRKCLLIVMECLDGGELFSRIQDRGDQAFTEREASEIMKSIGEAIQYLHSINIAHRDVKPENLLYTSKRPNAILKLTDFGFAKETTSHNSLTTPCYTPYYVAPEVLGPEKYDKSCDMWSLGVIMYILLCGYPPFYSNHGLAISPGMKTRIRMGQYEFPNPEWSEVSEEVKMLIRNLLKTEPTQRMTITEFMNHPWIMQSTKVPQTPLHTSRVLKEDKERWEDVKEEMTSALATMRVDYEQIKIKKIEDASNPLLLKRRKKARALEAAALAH
UniProt Q15349, sequence (whole entry, looked up): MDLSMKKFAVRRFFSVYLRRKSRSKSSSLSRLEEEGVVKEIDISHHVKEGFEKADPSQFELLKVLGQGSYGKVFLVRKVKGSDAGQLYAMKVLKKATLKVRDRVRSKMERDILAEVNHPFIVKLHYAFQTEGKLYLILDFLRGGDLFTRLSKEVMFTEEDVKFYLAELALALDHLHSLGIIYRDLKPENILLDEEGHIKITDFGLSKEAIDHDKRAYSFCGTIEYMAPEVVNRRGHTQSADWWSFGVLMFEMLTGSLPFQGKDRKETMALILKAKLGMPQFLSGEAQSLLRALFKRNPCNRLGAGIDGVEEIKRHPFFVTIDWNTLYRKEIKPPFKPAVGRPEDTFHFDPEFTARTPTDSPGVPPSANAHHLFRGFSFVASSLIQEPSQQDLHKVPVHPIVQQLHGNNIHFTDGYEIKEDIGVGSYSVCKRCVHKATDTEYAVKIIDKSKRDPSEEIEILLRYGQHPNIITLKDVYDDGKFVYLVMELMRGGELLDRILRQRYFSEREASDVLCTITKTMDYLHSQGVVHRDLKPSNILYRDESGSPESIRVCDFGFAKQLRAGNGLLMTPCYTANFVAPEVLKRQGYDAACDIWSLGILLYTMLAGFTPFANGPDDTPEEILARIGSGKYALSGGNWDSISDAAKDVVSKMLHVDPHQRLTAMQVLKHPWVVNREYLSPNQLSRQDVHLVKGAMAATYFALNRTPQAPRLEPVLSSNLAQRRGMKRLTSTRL
UniProt Q9HC98, sequence (whole entry, looked up): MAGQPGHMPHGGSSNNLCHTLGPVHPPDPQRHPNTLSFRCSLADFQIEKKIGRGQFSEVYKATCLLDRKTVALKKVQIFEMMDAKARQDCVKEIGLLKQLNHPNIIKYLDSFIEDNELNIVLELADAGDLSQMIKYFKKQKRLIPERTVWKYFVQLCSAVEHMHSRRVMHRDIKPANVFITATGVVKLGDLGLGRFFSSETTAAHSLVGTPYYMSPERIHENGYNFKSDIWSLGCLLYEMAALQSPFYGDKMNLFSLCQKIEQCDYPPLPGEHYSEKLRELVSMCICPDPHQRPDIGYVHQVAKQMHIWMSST
UniProt P42685, sequence (whole entry, looked up): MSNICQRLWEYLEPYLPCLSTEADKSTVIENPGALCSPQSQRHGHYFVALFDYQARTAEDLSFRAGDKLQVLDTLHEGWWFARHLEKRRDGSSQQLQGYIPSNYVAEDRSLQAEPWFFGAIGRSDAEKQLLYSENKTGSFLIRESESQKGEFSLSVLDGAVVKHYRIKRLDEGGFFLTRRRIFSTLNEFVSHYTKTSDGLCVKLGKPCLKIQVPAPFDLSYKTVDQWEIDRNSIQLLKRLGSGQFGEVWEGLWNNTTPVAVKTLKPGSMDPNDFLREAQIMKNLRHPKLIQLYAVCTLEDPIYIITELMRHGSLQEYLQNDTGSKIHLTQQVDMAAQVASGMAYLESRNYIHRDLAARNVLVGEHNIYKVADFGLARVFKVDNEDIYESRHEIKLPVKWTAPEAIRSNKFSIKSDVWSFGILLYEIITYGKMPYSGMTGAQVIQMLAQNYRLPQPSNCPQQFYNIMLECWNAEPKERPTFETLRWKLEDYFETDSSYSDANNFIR
UniProt P30291, sequence (whole entry, looked up): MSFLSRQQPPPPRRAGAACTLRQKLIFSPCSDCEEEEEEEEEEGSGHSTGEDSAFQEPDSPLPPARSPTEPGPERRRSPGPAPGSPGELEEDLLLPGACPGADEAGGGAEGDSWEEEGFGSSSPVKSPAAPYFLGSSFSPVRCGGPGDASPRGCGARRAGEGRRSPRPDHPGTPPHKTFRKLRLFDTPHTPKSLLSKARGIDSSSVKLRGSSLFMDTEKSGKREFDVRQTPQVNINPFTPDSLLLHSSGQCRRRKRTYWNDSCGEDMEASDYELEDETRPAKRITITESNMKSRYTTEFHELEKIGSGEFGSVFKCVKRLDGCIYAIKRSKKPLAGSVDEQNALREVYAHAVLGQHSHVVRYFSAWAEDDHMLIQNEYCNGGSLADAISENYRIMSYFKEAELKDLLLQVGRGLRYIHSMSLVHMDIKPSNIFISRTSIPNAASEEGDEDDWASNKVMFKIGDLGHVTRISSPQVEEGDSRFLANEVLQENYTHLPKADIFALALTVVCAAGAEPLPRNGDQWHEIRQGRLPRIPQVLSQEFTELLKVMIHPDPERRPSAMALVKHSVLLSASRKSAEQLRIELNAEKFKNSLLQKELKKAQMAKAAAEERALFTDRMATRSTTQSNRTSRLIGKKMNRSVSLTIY

Block 1 — host: mouse; sample: microsomes or S9; tested at: 2 µM; time: 0.5 h
With CCC(=O)N(CCC1(c2ccc(C)cc2)CCOC(C)(C)C1)Cc1ccccc1 (centres unmarked) the remaining compound was 0.12%.
O=C(Nc1nc(-c2ccncc2)cs1)c1ccccn1 gave a remaining compound of 13.5%.
The remaining compound of C1CN(c2nc(N3CCOCC3)c3nn[nH]c3n2)CCO1 is reported as 41.2%.

Block 2 — cell line: sample B colorectal tumour organoid; tested at: 1 µM; relative to: DMSO
With O=C(O)c1ccc(-c2coc3ncc(-c4ccccc4)cc23)cc1Cl the viability was 113%.
For CN(C)C(=O)Cn1cc(-c2ccc(-c3nnc4ccccn34)cc2)cn1, the viability was 110%.
CC(C)C(=O)Nc1n[nH]c2cc(-c3cccc(NS(=O)(=O)C4CC4)c3)ccc12 has a viability of 106%.
The viability of CCC(=N\O)/C(C)=C/c1ccc(F)cc1 is reported as 117%.

Block 3 — cell line: HaCaT; tested at: 100 µM; time: 18 h
For O=S(=O)(O)Oc1ccc(C(c2ccc(OS(=O)(=O)O)cc2)c2ccccn2)cc1, the viability was 117%.
With CCC[C@H](N[C@@H](C)C(=O)N1[C@H](C(=O)O)C[C@@H]2CCCC[C@@H]21)C(=O)O the viability was 108%.
With CCN(CCCc1ccccc1)CCCc1ccccc1 the viability was 57.9%.
CC1CNc2c(cccc2S(=O)(=O)N[C@@H](CCCNC(=N)N)C(=O)N2CC[C@@H](C)C[C@@H]2C(=O)O)C1 (some centres unmarked) gave a viability of 108%.

Block 4 — Compound: CC(=O)c1ccc(N2CCOCC2)cc1O; observed: enzyme activity; mode: inhibitor; tested at: 0.5 µM; relative to: control
For Activin receptor type-1B (ACVR1B, Homo sapiens, UniProt P36896): remaining activity read 100%.
The remaining activity was 114% (Serine/threonine-protein kinase Nek1 (NEK1, Homo sapiens, UniProt Q96PY6)).
Fibroblast growth factor receptor 1 (FGFR1, Homo sapiens, UniProt P11362) — remaining activity: 91.4%.
It gave 99.8% for remaining activity (Dual specificity mitogen-activated protein kinase kinase 2 (MAP2K2, Homo sapiens, UniProt P36507)).
For MAP kinase-activated protein kinase 2 (MAPKAPK2, Homo sapiens, UniProt P49137): remaining activity read 103%.
The remaining activity was 100% (Tyrosine-protein kinase Lck (LCK, Homo sapiens, UniProt P06239)).
The remaining activity was 98.6% (Ribosomal protein S6 kinase alpha-2 (RPS6KA2, Homo sapiens, UniProt Q15349)).
Wee1-like protein kinase (WEE1, Homo sapiens, UniProt P30291) — remaining activity: 97.5%.
It gave 101% for remaining activity (Tyrosine-protein kinase Mer (MERTK, Homo sapiens, UniProt Q12866)).
For Macrophage-stimulating protein receptor (MST1R, Homo sapiens, UniProt Q04912): remaining activity read 104%.
It gave 96.5% for remaining activity (Serine/threonine-protein kinase Nek6 (NEK6, Homo sapiens, UniProt Q9HC98)).
For Rhodopsin kinase GRK7 (GRK7, Homo sapiens, UniProt Q8WTQ7): remaining activity read 100%.
Tyrosine-protein kinase FRK (FRK, Homo sapiens, UniProt P42685) — remaining activity: 91.6%.

Mixed results
For Cl.O=C1[C@H]2CCCC[C@H]2C(=O)N1CCCCN1CCN(c2nsc3ccccc23)CC1, the viability was 94% (bovine turbinate cells; concentration not given).
The trough concentration of COc1ccc(-c2c(Nc3ccccn3)[nH]c3c(C4=CCCCC4)c(-c4ccccc4)nn3c2=O)cc1 is reported as 9420 ng/mL (LC-MS/MS non-compartmental; human, plasma; oral, 200 mg twice daily, 12 h, cycle 1).

Some of these lines once more (mixed results):
For Cl.O=C1[C@H]2CCCC[C@H]2C(=O)N1CCCCN1CCN(c2nsc3ccccc23)CC1, the viability was 94% (bovine turbinate cells; concentration not given).
The trough concentration of COc1ccc(-c2c(Nc3ccccn3)[nH]c3c(C4=CCCCC4)c(-c4ccccc4)nn3c2=O)cc1 is reported as 9420 ng/mL (LC-MS/MS non-compartmental; human, plasma; oral, 200 mg twice daily, 12 h, cycle 1).
